Assay results of several laboratories.
Each line is one published result; not all experiments were run side by side.
Cell line: L1210
Observed: cell growth or viability

| SMILES | setting | IC50 [µM] |
| --- | --- | --- |
| C=C(Br)C(=O)Nc1c(C(=O)c2cc(OC)c(OC)c(OC)c2)oc2cc(OC)ccc12 | 24 h | 5.02 |
| CCOP(=O)(OCC)[C@H]1C[C@@H](Cn2c(=O)n(C(=O)c3ccc(F)cc3)c(=O)c3ccccc32)ON1C (relative stereo) | 48 h | > 250 |
| Nc1ncnc2c1ncn2[C@@H]1O[C@H](CO)[C@@H](O)[C@H](F)[C@H]1O |  | 166 |
| COc1cc(C(=O)c2oc3ccccc3c2NC(=O)CI)cc(OC)c1OC | 24 h | 0.81 |
| O=C1C(=Cc2ccccc2)CN(C(=O)c2ccccc2C(=O)N2CC(=Cc3ccccc3)C(=O)C(=Cc3ccccc3)C2)CC1=Cc1ccccc1 |  | 4.19 |
| Nc1ccn([C@@H]2O[C@H](CO)[C@@H](O)[C@H](F)[C@H]2O)c(=O)n1 |  | 159 |
| O=C1C(=Cc2ccccc2)CN(C(=O)C#CC(=O)N2CC(=Cc3ccccc3)C(=O)C(=Cc3ccccc3)C2)CC1=Cc1ccccc1 |  | 9.86 |
| COC(=O)c1cc(CCc2cc(OC)ccc2OC)ccc1O | 48 h | 0.36 |

Some of these lines once more:
| SMILES | setting | IC50 [µM] |
| --- | --- | --- |
| O=C1C(=Cc2ccccc2)CN(C(=O)c2ccccc2C(=O)N2CC(=Cc3ccccc3)C(=O)C(=Cc3ccccc3)C2)CC1=Cc1ccccc1 |  | 4.19 |
